Experimental data collected from several papers.
Compare with care: the assays were run in different laboratories. “And” joins repeats or separate records; there may be more than shown. ± gives the spread as reported.

Compound | cell line | assay | conditions | how to read | endpoint | value
CCOc1ccc(-c2nc3cc(-c4nc5cc(N6CCN(C)CC6)ccc5[nH]4)ccc3[nH]2)cc1OCC | MDA-MB-435 | SRB | 10 µM, 48 h |  | growth percent | -2.53%
Cc1nn(-c2nc3c(F)cc(F)cc3s2)c(O)c1C(c1ccccc1C(F)(F)F)c1c(C)nn(-c2nc3c(F)cc(F)cc3s2)c1O | THP1-Dual | IFN luciferase reporter | 80 µM, with: HT-DNA |  | inhibition | 101%
CCc1cnc(N2CCC(c3nc(COc4ccc(-n5cnnn5)cc4)cs3)CC2)nc1 | HEK-293T | RNA-seq GSEA, measured: HALLMARK_MYC_TARGETS_V2 | concentration not given | direction not given | normalized enrichment score | -2.4
CCn1cc(-c2cc(Cn3ccoc3=N)cc3c2CCN([C@@H](C)c2cc(OC)ccn2)C3=O)c(C(F)(F)F)n1 | YD-10B | cell growth, inhibitor | 120 h |  | EC50 | > 30 µM
CC/C(=N\NC(=O)NCc1cccc(O)c1)c1ccc(O)c(C)c1O | SK-OV-3 | Western blot, measured: LATS | 20 µM, 1 h, 2D culture, unit not given | relative to: β-actin | protein level | 0.98 ± 0.5
COC[C@H](NC(=O)c1cnc(C)s1)C(=O)N[C@@H](COC)C(=O)N[C@@H](Cc1ccccc1)C(=O)[C@@]1(C)CO1 | BRD4-HiBiT cells | BRD4 degradation rescue, inhibitor | 4 h, 50% degradation rescued, with: dBET6 500 nM |  | EC50 | 9.38 µM
Cc1nn(-c2nc3c(F)cc(F)cc3s2)c(O)c1C(c1cccc(C(F)(F)F)c1)c1c(C)nn(-c2nc3c(F)cc(F)cc3s2)c1O | THP1-Dual | IFN luciferase reporter | 5 µM, with: HT-DNA |  | inhibition | 3.62% and 11.8% and 5.47% and -11.9% and -12.2% and 6.12%
CCOC(=O)C1=C(C)NC2=C(C(=O)OC(c3ccc(OC)c(OC)c3)C2)C1c1cccc(C)c1 (centres unmarked) | J774.A1 | cytotoxicity |  |  | EC50 | > 20 µM
Cc1cnc(NC2CCOCC2)nc1-n1cnc(C(=O)NC(CN)c2cc(F)cc(Cl)c2)c1 (centres unmarked) | MINO | flow cytometry | 1 µM, 48 h |  | S phase cells | 9.3%
COc1cc(C(=O)Nc2cc(OCCN3CCCC3)c3ccccc3n2)nc(C(=O)Nc2cc(OCCN3CCCC3)c3ccccc3n2)c1 | HT-1080 | cell viability, CellTiter-Glo | 72 h | relative to: IC50 HT-1080 over WI-38 | selectivity ratio | 2.6
O=C(/C=C/C=C/C=C/C1CCCCC1)NC1=C[C@@](O)(/C=C/C=C/C=C/C(=O)NC2=C(O)CCC2=O)[C@@H]2O[C@@H]2C1=O | NCI-H1650 | cell growth, CellTiter-Glo | 78 h |  | GI50 | 11.6 µM
CC(C)=CCNc1ncnc2c1ncn2[C@@H]1O[C@H](CO)[C@@H](O)[C@H]1O | mock-transfected cells | TGFα shedding, agonist | 100 µM | relative to: unstimulated vehicle control | AP-TGFα release | 10.8% and 12.3% and 13%
Cc1nc(NC(=O)N2CCC[C@H]2C(N)=O)sc1-c1ccnc(C(C)(C)C(F)(F)F)c1 | BT-20 | cell growth, CellTiter-Glo | 120 h |  | Hill coefficient GR curve | 1.37
Clc1nc(NCc2ccco2)c2[nH]cnc2n1 | iPSC-derived cardiomyocytes | RNA-seq, measured: chr16 exon ending 29454113 | unit not given | relative to: DMSO minus compound | ΔPSI | -0.21
CC(C)NCC(O)c1ccc(O)c(O)c1 (centres unmarked) | mouse ventricular cardiomyocytes |  | dose not given, 0.223 s |  | sarcomere length | 1.78 µm
O=P(O)(O)C(O)(Cn1ccnc1)P(=O)(O)O | hFOB 1.19 | AlamarBlue | 15 µM, 48 h | relative to: control | viability | 99 ± 1%
CCOC(=O)C1=C(c2ccccc2)NC2=C(C(=O)CC(c3ccc(OC)c(OC)c3)C2)C1c1ccccc1Cl (mixture of isomers) | J774.A1 | cytotoxicity |  |  | EC50 | > 20 µM
Cn1cc(Nc2nccc(-c3ccc4c(c3)CN(C3COC3)CC[C@H]4NC(=O)c3cn(C(C)(C)C)nn3)n2)cn1 | human B cells |  | 100 nM, 64 h, stimulation-upregulated genes, with: CD40L, anti-IgM, IL-4 |  | number of unchanged genes | 1820
CCn1cc(-c2cc(Cn3ccnc3)cc3c2CCN([C@H](c2cc(OC)ccn2)C2CC2)C3=O)c(C(F)(F)F)n1 | BT-20 | cell growth, inhibitor | 120 h |  | EC50 | > 30 µM
O=C(NN=Cc1ccc([N+](=O)[O-])s1)C1CC(=O)N(c2ccc(F)cc2F)C1 (centres unmarked) | PPC-1 | wound healing | 10 µM, 12 h |  | cell migration | inhibited
Nc1ncnc2c1ncn2[C@@H]1O[C@H](CO)[C@@H](O)[C@H]1O | activated human T cells |  | 3.16 µM | higher = more TNF | TNF production | 3830 a.u. and 2970 a.u. and 3540 a.u.
NCCOc1cc(NC(=O)c2cc(OCc3ccc(F)cc3)cc(C(=O)Nc3cc(OCCN)c4ccccc4n3)n2)nc2ccccc12 | HT-1080 | cell viability, CellTiter-Glo | 72 h | relative to: IC50 HT-1080 over WI-38 | selectivity ratio | 3.1
COc1ccc(-n2nc(C(C)=O)s/c2=N\N=C(/C)c2ccc(NC(=O)c3ccc(Cl)cc3)cc2)cc1 | HepG2 |  | 5 µM |  | toxicity | 93.9%
C=CC1=C(C)c2cc3[n-]c(cc4nc(cc5[n-]c(cc1n2)c(C)c5C=C)C(C)=C4CCC(=O)O)c(CCC(=O)O)c3C.[Zn+2] | SH-SY5Y | RNA-seq, measured: FAM83G mRNA | 5 µM, 5 h | relative to: untreated cells | fold change | 1.63
Cc1cc(Nc2ncc(Cl)c(Nc3ccccc3S(=O)(=O)C(C)C)n2)c(OC(C)C)cc1C1CCNCC1 | Aska-SS (ALK exon 2-17 deletion) | cell viability |  |  | Emax | 81.2%

Compound | cell line | assay | conditions | how to read | endpoint | value
Nc1cccc2c1C(=O)N(C1CCC(=O)NC1=O)C2=O (centres unmarked) | MM1.S | XTT | 1 µM |  | viability | 16% and 28% and 31%
[Cl][111In]([Cl])[Cl] | U2OS-53BP1 |  | 18 h, subcellular fraction f3 |  | nucleic fraction share | 7%
N#C/C(=C\c1c[nH]nc1-c1ccc(Cl)c(Cl)c1)C(=O)O | LX-2 | qPCR, measured: ACTA2 | 10 µM, hepatic stellate cell activation, with: TGFβ | relative to: untreated | mRNA level | decreased
COc1ccc(C2CC3=C(C(=O)O2)C(c2ccccc2Cl)C(C(=O)OC(C)(C)C)=C(C)N3)cc1OC (centres unmarked) | J774.A1 | cytotoxicity |  |  | EC50 | > 20 µM
Cc1nn(-c2nc3ccc(Cl)c(Cl)c3[nH]2)c(O)c1C1OC(=O)c2ccccc21 (centres unmarked) | RAW-ISG | IFN luciferase reporter | 20 µM, with: HT-DNA |  | inhibition | 93% and 92.8% and 92.5% and 92.4% and 92.6%
[Cl-].[Cl-].[Os+2].c1cnc2c(c1)ccc1cccnc12.c1cnc2c(c1)ccc1cccnc12.c1cnc2c(c1)ccc1cccnc12 | SK-MEL-28 |  | red light, 1% O2 hypoxia |  | TGI | 172 µM
Nc1cccc2c1CN(C1CCC(=O)NC1=O)C2=O (centres unmarked) | BRD4-HiBiT cells | BRD4 degradation rescue, inhibitor | 2 h, 50% degradation rescued, with: dBET6 500 nM |  | EC50 | 2.47 µM
CCCCc1oc2ccc(NS(C)(=O)=O)cc2c1C(=O)c1ccc(OCCCN(CCCC)CCCC)cc1 | human embryonic stem cell aggregates | mRNA level, microarray, measured: CYP26A1 | 0.5 µM, 120 h | relative to: untreated, down-regulated | fold change | 2.3 fold
CC(C)(c1ccc(O)cc1)c1ccc(O)cc1 | HepG2 spheroids | planimetry | 10 µM, 0 to 96 h | relative to: mean area of 72 h spheroids | spheroid area increase | 165%
C=CCn1c(=O)c2cnc(Nc3ccc(N4CCN(C)CC4)cc3)nc2n1-c1ccc2c(n1)[C@@](O)(CC)CC2 | Kuramochi | flow cytometry | concentration not given, EdU-positive S phase |  | γH2AX-positive cells | 11.2%
CCOC(=O)C1=C(C)NC2=C(C(=O)CC(c3ccc(Cl)c(OC)c3)C2)C1c1ccccc1Cl (centres unmarked) | J774.A1 | cytotoxicity |  |  | EC50 | > 20 µM
CC1=CC[C@H]2[C@@H]([C@@H]1CC[C@H]1[C@]3(C)CC[C@H](O)C(C)(C)O[C@H]3CC[C@]1(C)O)C(C)(C)CC[C@]2(C)O | KB-3-1 |  | 10 µM |  | intracellular [3H]-paclitaxel | no effect
Cc1cc(OCc2nnc(SC3CCCC3)n2-c2cccnc2)ccc1-c1ccc(S(C)(=O)=O)cc1 | BRD4-HiBiT cells | BRD4 degradation rescue, inhibitor | 2 h, 50% degradation rescued, with: dBET6 500 nM |  | EC50 | 8.71 µM
Cc1cc(Nc2ncc(Cl)c(Nc3ccccc3S(=O)(=O)C(C)C)n2)c(OC(C)C)cc1C1CCNCC1 | CLB-BAR | phosphoproteomics LC-MS/MS, measured: MAPK1 phosphorylation | 200 nM, 60 min | relative to: untreated | log2 fold change | -4.9
Cn1cc(-c2ccc(-c3cncc(Cl)c3N3CCC4(CCNC4=O)CC3)cc2)cn1 | COLO 205 | gene expression, microarray, measured: NLRP1 mRNA | concentration not given, 6 h | relative to: untreated cells | log2 fold change | 2.59
COc1cnc2cccc(N3CCc4c(cc(Cn5ccnc5C)cc4-c4cn(C)nc4C(F)(F)F)C3=O)c2c1 | MDA-MB-175-VII | cell growth, inhibitor | 120 h |  | EC50 | > 30 µM
CCCC1=C(C(=O)OCC)C(c2ccc(Cl)cc2C)C2=C(CC(c3ccc(OC)c(OC)c3)CC2=O)N1 (centres unmarked) | J774.A1 | cytotoxicity |  |  | EC50 | > 20 µM
CCN1CCN(Cc2ccc(NC(=O)c3ccc(C)c(-c4ccc5nc(NC(=O)C6CC6)cn5c4)c3)cc2C(F)(F)F)CC1 | MHHCALL4 B-ALL cells | CellTiter-Glo | concentration not given, 3 d |  | cell proliferation | inhibited
O=C(COP(=O)(O)O)[C@@H](O)[C@H](O)[C@H](O)COP(=O)(O)O | HepG2 control sgRNA |  | concentration not given |  | lactate production | 1.34 mM and 1.27 mM and 1.24 mM
CC(NCCc1ccc(O)cc1)C(O)c1ccc(O)cc1 (centres unmarked) | MDA-MB-231 BAX/BAK siRNA knockdown | CellTiter-Glo | concentration not given | relative to: normalised luminescence | viability | 54.6% and 40%
C[C@H]1CN(C2COC2)CCN1c1ccc(Nc2cc(-c3ccnc(N4CCn5c(cc6c5CC(C)(C)C6)C4=O)c3CO)cn(C)c2=O)nc1 | TMD8 | calcium flux, FLIPR | 2 h preincubation, with: anti-IgM |  | maximum inhibition | 65.5%
FC(F)(F)COCC(F)(F)F | MDA-MB-231 BAX/BAK siRNA knockdown | CellTiter-Glo | concentration not given | relative to: normalised luminescence | viability | 45.1% and 63.5%
O=C(C[C@@H](C(F)F)n1ccc(F)n1)N1CCC(O)(Cn2cnc3c(cnn3-c3ccc(F)cc3)c2=O)CC1 | CHP-212 resistant subline R3 | annexin V/PI flow cytometry | 0.3 µM, 48 h |  | apoptotic cells | 9.59% and 13% and 10.1%
CN(C)c1ncnc2c1ncn2[C@@H]1O[C@H](CO)[C@@H](O)[C@H]1O | mock-transfected cells | TGFα shedding, agonist | 1 nM | relative to: unstimulated vehicle control | AP-TGFα release | -0.81% and 0.7% and -1.69%
NS(=O)(=O)OC[C@@H]1C[C@@H](n2ccc3c(N[C@H]4CCc5ccccc54)ncnc32)C[C@@H]1O | BRD4-HiBiT cells | BRD4 degradation rescue, inhibitor | 4 h, 50% degradation rescued, with: dBET6 500 nM |  | EC50 | 0.108 µM

Excerpt of the above:
Compound | cell line | assay | conditions | how to read | endpoint | value
CCOC(=O)C1=C(C)NC2=C(C(=O)CC(c3ccc(Cl)c(OC)c3)C2)C1c1ccccc1Cl (centres unmarked) | J774.A1 | cytotoxicity |  |  | EC50 | > 20 µM
CC1=CC[C@H]2[C@@H]([C@@H]1CC[C@H]1[C@]3(C)CC[C@H](O)C(C)(C)O[C@H]3CC[C@]1(C)O)C(C)(C)CC[C@]2(C)O | KB-3-1 |  | 10 µM |  | intracellular [3H]-paclitaxel | no effect
Cc1cc(OCc2nnc(SC3CCCC3)n2-c2cccnc2)ccc1-c1ccc(S(C)(=O)=O)cc1 | BRD4-HiBiT cells | BRD4 degradation rescue, inhibitor | 2 h, 50% degradation rescued, with: dBET6 500 nM |  | EC50 | 8.71 µM
Cc1cc(Nc2ncc(Cl)c(Nc3ccccc3S(=O)(=O)C(C)C)n2)c(OC(C)C)cc1C1CCNCC1 | CLB-BAR | phosphoproteomics LC-MS/MS, measured: MAPK1 phosphorylation | 200 nM, 60 min | relative to: untreated | log2 fold change | -4.9
Cn1cc(-c2ccc(-c3cncc(Cl)c3N3CCC4(CCNC4=O)CC3)cc2)cn1 | COLO 205 | gene expression, microarray, measured: NLRP1 mRNA | concentration not given, 6 h | relative to: untreated cells | log2 fold change | 2.59
COc1cnc2cccc(N3CCc4c(cc(Cn5ccnc5C)cc4-c4cn(C)nc4C(F)(F)F)C3=O)c2c1 | MDA-MB-175-VII | cell growth, inhibitor | 120 h |  | EC50 | > 30 µM
CCCC1=C(C(=O)OCC)C(c2ccc(Cl)cc2C)C2=C(CC(c3ccc(OC)c(OC)c3)CC2=O)N1 (centres unmarked) | J774.A1 | cytotoxicity |  |  | EC50 | > 20 µM
CCN1CCN(Cc2ccc(NC(=O)c3ccc(C)c(-c4ccc5nc(NC(=O)C6CC6)cn5c4)c3)cc2C(F)(F)F)CC1 | MHHCALL4 B-ALL cells | CellTiter-Glo | concentration not given, 3 d |  | cell proliferation | inhibited
